Measurements pooled from the literature.
± gives the spread as reported.
Medium: plasma

CC(C)(O)c1ncc([S@](N)(=O)=NC(=O)Nc2c3c(cc4c2CCC4)CCC3)s1 has an AUC(0-inf) of 329000 ng·h/mL (healthy human fasted; oral, 300 mg single dose, spray-dried dispersion).
CCc1c2c(nc3ccc(O)cc13)-c1cc3c(c(=O)n1C2)COC(=O)[C@]3(O)CC gave an AUC(0-inf) of 17 ng·h/mL (human patients; intravenous, 6 mg/m^2 of parent drug).
[2H]C([2H])([2H])NC(=O)c1ccc(N2C(=S)N(c3ccc(C#N)c(C(F)(F)F)c3)C(=O)C2(C)C)cc1F gave an AUC(0-inf) of 152000 ± 28200 ng·h/mL (healthy male humans; oral, 40 mg, fasting, soft capsules).
The AUC(0-inf) of Cn1c(=O)oc2ccc(-c3ccc(CC(C#N)NC(=O)C4CNCCCO4)c(F)c3)cc21 (stereo not drawn) is reported as 8740 ng·h/mL (human volunteers; 80 mg single dose, fasted, geometric mean).
For O=C(CCc1ccc(CNC(C(=O)O)C2CCCCC2)cn1)NO (stereo not drawn), the AUC(0-inf) was 243 ng·h/mL (healthy male humans; oral, 40 mg, single dose, geometric mean).
CC1C(c2c(F)ccc(F)c2F)CC(N[14C](=O)c2cnc3c(c2)CC2(C3)C(=O)Nc3ncccc32)C(=O)N1CC(F)(F)F (stereo not drawn) gave an AUC(0-inf) of 2970 ± 779 ng-eq·h/mL (liquid scintillation counting, measured: total radioactivity; human; oral, 50 mg, single dose, 14C-labelled).
For CCCOc1ccc(S(N)(=O)=O)cc1-c1nc2c(CCC)nn(C)c2c(=O)[nH]1, the AUC(0-inf) was 5320 ± 2640 ng·h/mL (healthy male humans; oral, 200 mg of udenafil).
The AUC(0-inf) of O=C(CCc1ccc(CNC(C(=O)OC2CCCC2)C2CCCCC2)cn1)NO (stereo not drawn) is reported as 40.1 ng·h/mL (human; oral, 20 mg single dose, geometric mean).
For CN1CCC[C@]1(C)/C=C/S(=O)(=O)NC(=O)Nc1c2c(cc3c1CCC3)CCC2, the AUC(0-inf) was 29400 ng·h/mL (human; oral, 12.5 mg twice daily, day 14, multiple ascending dose).

Excerpt of the above:
The AUC(0-inf) of O=C(CCc1ccc(CNC(C(=O)OC2CCCC2)C2CCCCC2)cn1)NO (stereo not drawn) is reported as 40.1 ng·h/mL (human; oral, 20 mg single dose, geometric mean).
For CN1CCC[C@]1(C)/C=C/S(=O)(=O)NC(=O)Nc1c2c(cc3c1CCC3)CCC2, the AUC(0-inf) was 29400 ng·h/mL (human; oral, 12.5 mg twice daily, day 14, multiple ascending dose).
